# Published values gathered from unrelated publications.
# Numbered parts are unrelated; each lists some results of a single study. Changes are numbered by the printed parent chain.

# Study 1 — method: Spec-seq; molecule type: double-stranded DNA, one strand shown; medium: in vitro; concentration: not given; setting: whole probe, mean of replicates; relative to: not given; direction: lower = stronger binding; shared flanks, not repeated: GAGTCGTCTCGTCAGCAC … CCGTAGAGCACTCAGGTC
# Target: POU domain, class 5, transcription factor 1, POU domain (Pou5f1, Mus musculus, UniProt P20263, residues 131-289)
# Sequence of UniProt P20263 (131-289, looked up): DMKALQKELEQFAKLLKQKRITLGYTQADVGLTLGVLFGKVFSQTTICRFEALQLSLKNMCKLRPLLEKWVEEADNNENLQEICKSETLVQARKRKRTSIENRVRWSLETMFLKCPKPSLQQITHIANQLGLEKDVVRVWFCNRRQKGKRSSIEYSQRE
Sequence,relative binding energy
GCATTAAT,-0.713 ln ratio
CCATTAAT,0.0888 ln ratio
ACCGTAAT,0.737 ln ratio
ATGCTGCG,0.747 ln ratio
TGATTAAT,-0.519 ln ratio
GGTGTAAT,0.842 ln ratio
ATATTCAT,-1.18 ln ratio
ATGCTTCA,0.621 ln ratio
TATGTAAT,-0.648 ln ratio
ATAATGAT,-0.191 ln ratio
CGACTAAT,0.378 ln ratio
ATGCTTCC,0.666 ln ratio
ATGCTACG,0.52 ln ratio
CCAATAAT,0.449 ln ratio
ATAATCAT,-1.06 ln ratio
CCCTTAAT,0.674 ln ratio
ATGACGAT,0.759 ln ratio
ATTTAAAT,-1.29 ln ratio
ATCCATAT,-0.868 ln ratio
CACTTAAT,0.535 ln ratio
ATGGGTAT,0.497 ln ratio
ATGCGCTT,0.617 ln ratio
CGTGTAAT,0.867 ln ratio
ATAGCGAT,0.681 ln ratio
ATGCATCG,-0.345 ln ratio

# Study 2 — method: universal PBM; molecule type: double-stranded DNA, one strand shown; medium: in vitro; concentration: 600 nM; direction: higher = stronger binding
# Target: Sal-like protein 4, full length isoform A (SALL4, Homo sapiens, UniProt Q9UJQ4, residues 1-1053)
# Sequence of UniProt Q9UJQ4 (whole entry, looked up): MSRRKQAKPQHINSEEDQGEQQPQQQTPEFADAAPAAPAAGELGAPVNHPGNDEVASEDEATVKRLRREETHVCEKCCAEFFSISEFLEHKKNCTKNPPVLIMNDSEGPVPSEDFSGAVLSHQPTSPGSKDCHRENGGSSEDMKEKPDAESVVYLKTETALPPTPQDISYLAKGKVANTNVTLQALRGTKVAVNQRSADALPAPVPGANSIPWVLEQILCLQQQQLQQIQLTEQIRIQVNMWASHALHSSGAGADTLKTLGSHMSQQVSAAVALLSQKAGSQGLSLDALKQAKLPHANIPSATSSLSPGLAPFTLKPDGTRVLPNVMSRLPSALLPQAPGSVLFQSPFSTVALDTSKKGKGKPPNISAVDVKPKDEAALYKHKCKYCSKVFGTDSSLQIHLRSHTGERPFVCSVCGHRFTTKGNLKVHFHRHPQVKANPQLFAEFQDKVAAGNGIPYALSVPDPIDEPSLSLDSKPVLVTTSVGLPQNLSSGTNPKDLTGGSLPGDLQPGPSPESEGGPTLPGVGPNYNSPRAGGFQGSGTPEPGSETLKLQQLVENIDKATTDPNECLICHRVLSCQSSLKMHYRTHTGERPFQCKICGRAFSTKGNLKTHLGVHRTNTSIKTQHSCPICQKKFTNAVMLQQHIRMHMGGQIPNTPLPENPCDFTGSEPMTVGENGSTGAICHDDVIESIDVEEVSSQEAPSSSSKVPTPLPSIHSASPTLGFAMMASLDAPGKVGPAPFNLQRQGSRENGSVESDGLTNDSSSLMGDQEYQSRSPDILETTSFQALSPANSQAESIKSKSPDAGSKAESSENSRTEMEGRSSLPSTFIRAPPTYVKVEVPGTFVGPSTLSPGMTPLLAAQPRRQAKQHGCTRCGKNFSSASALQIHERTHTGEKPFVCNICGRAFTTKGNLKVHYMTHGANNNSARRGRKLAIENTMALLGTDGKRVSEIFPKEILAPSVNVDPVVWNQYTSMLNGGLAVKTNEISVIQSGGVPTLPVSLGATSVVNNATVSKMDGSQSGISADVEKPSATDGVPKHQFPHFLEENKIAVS
# Setting: 8-mer, flanks averaged, mean of replicates
Sequence,E-score
ACCGGTCA,-0.159
ATTCCCAG,-0.0508
CCAAACAA,0.0372
ATTAGTGA,0.281
TGCACACA,0.0611
CGCATACA,0.112
ATTAGGGC,0.0509
GACTATGA,0.153
GCAATGTA,0.128
CGTCCAGA,-0.171
AGCTATGC,0.0179
GTAAGGGA,0.00449
GTCCCGGA,-0.292
AGGAGTCG,-0.175
GACTGAGC,-0.298
AACTCTGG,-0.0982
AAGCCTCG,-0.202
AATGACGC,-0.0274
CAGGTTAA,0.0331
CCGGTTAG,-0.252
ATAGCCGA,0.0879
CTGGAGTC,-0.239
AGCAGGTC,-0.0493

# Study 3 — method: DHFR PCA, deep sequencing; medium: yeast; together with: (+)-ABA 58 µM; relative to: wild-type fitted maximum; direction: higher = stronger binding
# Target: ABI1, truncated, D143A, DHFR fusion (Arabidopsis thaliana)
# Setting: methotrexate growth selection, single substitutions
# Starting sequence: PYL1, truncated, DHFR fusion (Arabidopsis thaliana); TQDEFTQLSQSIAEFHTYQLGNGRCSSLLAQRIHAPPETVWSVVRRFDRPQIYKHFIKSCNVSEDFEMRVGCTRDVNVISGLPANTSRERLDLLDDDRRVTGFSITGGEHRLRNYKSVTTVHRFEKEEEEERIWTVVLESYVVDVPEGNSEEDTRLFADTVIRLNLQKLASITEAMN; partner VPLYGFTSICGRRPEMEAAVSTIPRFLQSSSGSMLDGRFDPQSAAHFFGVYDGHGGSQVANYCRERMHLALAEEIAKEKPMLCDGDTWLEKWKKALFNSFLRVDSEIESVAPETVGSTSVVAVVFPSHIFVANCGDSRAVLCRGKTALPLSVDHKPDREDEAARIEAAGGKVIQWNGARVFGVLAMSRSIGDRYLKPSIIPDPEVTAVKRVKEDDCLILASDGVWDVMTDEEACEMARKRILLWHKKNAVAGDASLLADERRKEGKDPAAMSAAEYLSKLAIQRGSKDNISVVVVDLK
Substitution,relative binding score [%]
S11H,71.8
T135L,1.49
G21E,92.9
S87I,14.2
L156N,71.6
Q31I,47.6
I33V,77.4
S171L,79.9
D65E,82
H55M,90.4
R123H,99
K168L,39.9
S26R,60.9
F66T,72.1
G81S,36.2
Y53P,-6.37
W134G,92.1

# Study 4 — method: protein binding microarray; molecule type: double-stranded DNA, one strand shown; medium: in vitro; concentration: not given; relative to: not given; direction: higher = stronger binding
# Target: Histone acetyltransferase KAT6A, winged helix 2, GST fusion (KAT6A, Homo sapiens, UniProt Q92794, residues 85-181)
# Setting: 8-mer, flanks averaged, mean of 2 arrays, mostly near background
# Residues (chain): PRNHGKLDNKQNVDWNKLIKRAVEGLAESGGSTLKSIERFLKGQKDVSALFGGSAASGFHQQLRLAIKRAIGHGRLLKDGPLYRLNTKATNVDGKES
Sequence,E-score
CAAATTAC,-0.0365
CCCCGACC,0.13
GGACTAAA,0.0358
AGTGAACA,-0.142
GCTATGCC,-0.011
CACCCTGG,-0.0948
ACGCAGTG,0.0478
CCTTGCAA,0.00671
AGATGTCA,-0.0112
TCTGTAAA,-0.104
TGATCCAA,-0.0509
CGGCTTGC,0.251
AGGACTGG,-0.104
ACATAAAT,-0.187
ACAGCTCA,-0.101
ATTTCAGC,0.08
AAAGGTCA,0.0438
AACCATTC,-0.067
GAATTTAA,0.0388
TGGTCAAA,0.0301
AGAGTCCT,-0.196

# Study 5 — method: protein-binding microarray; molecule type: double-stranded DNA, one strand shown; medium: in vitro; concentration: not given; direction: higher = stronger binding
# Target: Transcriptional repressor CTCF (CTCF, Homo sapiens, UniProt P49711, residues 1-727, full length assumed)
# Setting: k-mer, scored over probes, only values ≥0.25
# Construct (chain): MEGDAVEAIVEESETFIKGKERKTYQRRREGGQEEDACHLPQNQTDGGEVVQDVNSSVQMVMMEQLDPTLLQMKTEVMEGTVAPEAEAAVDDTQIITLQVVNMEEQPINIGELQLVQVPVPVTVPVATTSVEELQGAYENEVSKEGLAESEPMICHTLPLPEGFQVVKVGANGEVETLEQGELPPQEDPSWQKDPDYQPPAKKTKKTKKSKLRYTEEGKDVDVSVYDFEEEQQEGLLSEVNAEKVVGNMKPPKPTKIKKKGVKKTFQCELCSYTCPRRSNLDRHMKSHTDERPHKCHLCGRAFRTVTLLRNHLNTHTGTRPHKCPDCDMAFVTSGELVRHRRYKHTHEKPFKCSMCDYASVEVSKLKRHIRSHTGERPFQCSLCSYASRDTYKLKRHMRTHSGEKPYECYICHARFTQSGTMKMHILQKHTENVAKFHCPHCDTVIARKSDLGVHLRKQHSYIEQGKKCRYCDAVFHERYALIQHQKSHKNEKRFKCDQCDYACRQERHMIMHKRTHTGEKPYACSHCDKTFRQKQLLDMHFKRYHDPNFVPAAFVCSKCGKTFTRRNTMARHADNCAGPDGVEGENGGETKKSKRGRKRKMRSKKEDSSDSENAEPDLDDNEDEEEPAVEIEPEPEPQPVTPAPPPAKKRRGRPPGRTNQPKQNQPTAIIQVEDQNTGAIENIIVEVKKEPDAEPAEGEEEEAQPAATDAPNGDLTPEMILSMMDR
Sequence,E-score
CATACATG,0.356
GTGTATTA,0.327
GAGTGCGC,0.271
TACAAATA,0.357
AAATGGTA,0.317
CAATAATA,0.346
TAATATGA,0.3
AAGATATA,0.263
AGGAAATA,0.308
TAATAAAA,0.357
AGAAATAA,0.26
GTGGCCAC,0.314
GCTTTTTA,0.335
CTATTATA,0.261
AAATTATT,0.285
GCGAATTA,0.281
CTACAAAA,0.283
AATATACG,0.283
ATCAATTG,0.277
CACATGTA,0.267
CTAATATA,0.342
AGGGGCGC,0.373
AATGTGCG,0.283
TGTATTAA,0.361
CGCGCATA,0.326

# Study 6 — target: CCND3, cyclin fold, Cln2 fusion (human); method: yeast growth competition, sequencing; medium: yeast; setting: weak parent motif; relative to: not given; direction: higher = stronger binding
# Starting sequence: PKN2 docking peptide (human); VSAVQKLDFSDTM; partner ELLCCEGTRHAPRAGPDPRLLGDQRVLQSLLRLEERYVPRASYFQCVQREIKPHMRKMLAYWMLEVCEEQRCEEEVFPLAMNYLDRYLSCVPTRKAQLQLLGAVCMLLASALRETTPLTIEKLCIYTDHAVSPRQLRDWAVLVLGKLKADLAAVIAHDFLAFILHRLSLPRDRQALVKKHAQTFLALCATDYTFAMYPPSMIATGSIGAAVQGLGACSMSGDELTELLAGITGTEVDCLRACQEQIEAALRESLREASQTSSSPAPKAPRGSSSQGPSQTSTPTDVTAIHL
Substitution,normalised enrichment score
D11L,0.157
T12K,0.139
K6P,0.0566
T12E,0.219
V1S,0.166
V4F,0.115
D8I,0.127
D8A,0.138
D8V,0.118
K6T,0.258
D11A,0.157
V1N,0.146
S2Y,0.17
T12N,0.138
L7F,0.105
K6V,0.118
M13A,0.0851
D11C,0.153

# Other studies, line by line
Molecule,target,test,test system,conditions,how to read,measurement,result
"PhoQ, residues 284 288 289 292 302 303 ALVSVA","PhoP, residues 12 14 15 18 19 GQALL (Escherichia coli, UniProt P23836)","Sort-seq, measured: YFP reporter",E. coli,"PhoQ-PhoP variant library, together with: 10 µM Mg2+","relative to: high Mg2+ state, higher = stronger signaling",fold induction,21.9
